{"data": "Assay results pooled from the literature", "note": "Numbered parts are unrelated; each lists some results of a single study. Values joined by “and” are separate records of one study, mostly repeats; a detail may differ.", "UniProt P46098, sequence (whole entry, looked up)": "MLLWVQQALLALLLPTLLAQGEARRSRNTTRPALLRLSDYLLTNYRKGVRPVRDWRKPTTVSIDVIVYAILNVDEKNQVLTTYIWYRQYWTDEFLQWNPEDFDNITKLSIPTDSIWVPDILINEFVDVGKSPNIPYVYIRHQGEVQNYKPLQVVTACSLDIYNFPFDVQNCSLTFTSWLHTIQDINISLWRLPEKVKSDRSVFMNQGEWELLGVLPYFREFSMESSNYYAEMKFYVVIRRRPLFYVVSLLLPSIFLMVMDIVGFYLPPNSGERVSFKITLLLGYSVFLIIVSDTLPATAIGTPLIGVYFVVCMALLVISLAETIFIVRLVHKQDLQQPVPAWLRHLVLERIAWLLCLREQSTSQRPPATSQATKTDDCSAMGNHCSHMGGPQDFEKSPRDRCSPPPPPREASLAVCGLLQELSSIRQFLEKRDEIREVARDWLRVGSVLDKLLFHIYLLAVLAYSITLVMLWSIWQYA"}
{"data": "Series 1", "target": "cAMP-dependent protein kinase catalytic subunit gamma (PRKACG, Homo sapiens, UniProt P22612)", "observed": "enzyme activity", "mode": "inhibitor", "concentration": "0.5 µM", "relative to": "control", "UniProt P22612, sequence (whole entry, looked up)": "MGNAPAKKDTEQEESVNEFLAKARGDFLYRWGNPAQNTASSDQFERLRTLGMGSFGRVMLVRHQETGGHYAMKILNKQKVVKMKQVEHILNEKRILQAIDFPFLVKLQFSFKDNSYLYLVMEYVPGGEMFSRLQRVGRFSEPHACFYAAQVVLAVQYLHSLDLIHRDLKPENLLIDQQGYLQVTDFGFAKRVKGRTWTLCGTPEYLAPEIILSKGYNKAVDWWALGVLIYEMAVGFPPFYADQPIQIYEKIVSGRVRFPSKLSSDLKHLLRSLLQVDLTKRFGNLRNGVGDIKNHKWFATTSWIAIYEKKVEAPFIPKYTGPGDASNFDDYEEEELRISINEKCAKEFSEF"}
{"Compound": "Cc1cn(-c2cc(NC(=O)c3ccc(C)c(Nc4nccc(-c5cccnc5)n4)c3)cc(C(F)(F)F)c2)cn1", "remaining activity": "113%"}
{"Compound": "Cc1cc2ncc(-c3ccccc3)nc2cc1C", "remaining activity": "95.8%"}
{"Compound": "N#Cc1c(NC(=O)c2cccc3ccccc23)sc2c1CCCC2", "remaining activity": "111%"}
{"Compound": "COc1cc2c(cc1OC)-c1[nH]nc(Nc3cccc(F)c3)c1C2", "remaining activity": "102%"}
{"Compound": "Cn1nc2c3c(cccc31)C(=O)c1ccccc1-2", "remaining activity": "108%"}
{"Compound": "CN(C)C[C@H]1CCn2c(c(C3=C(c4cn(C)c5ccccc45)C(=O)NC3=O)c3ccccc32)C1", "remaining activity": "108%"}
{"Compound": "O=C1C(Cl)=C(N2C(=O)CCC2=O)C(=O)c2ccccc21", "remaining activity": "95.1%"}
{"Compound": "CCN(CC)CCNC(=O)c1c(C)[nH]c(/C=C2\\C(=O)Nc3ccc(F)cc32)c1C", "remaining activity": "109%"}
{"Compound": "O=C1Nc2ccc(Cl)cc2C1=Cc1cc(Cl)c(O)c(Cl)c1", "remaining activity": "99.2%"}
{"Compound": "CCN(CC)CCNC(=O)c1c(C)[nH]c(/C=C2\\C(=O)Nc3ccc(Cl)cc32)c1C", "remaining activity": "101%"}
{"Compound": "COc1cc2ncnc(Nc3cccc(Cl)c3)c2cc1OC", "remaining activity": "87.9%"}
{"Compound": "CN([C@@H](Cc1ccc(OS(=O)(=O)c2cccc3cnccc23)cc1)C(=O)N1CCN(c2ccccc2)CC1)S(=O)(=O)c1cccc2cnccc12", "remaining activity": "107%"}
{"Compound": "c1ccc(-c2[nH]ncc2-c2ccnc3ccccc23)nc1", "remaining activity": "92.9%"}
{"Compound": "C[C@@H]1CCN(C(=O)CC#N)C[C@@H]1N(C)c1ncnc2[nH]ccc12", "remaining activity": "111%"}
{"Compound": "CCOc1nc(NC(=O)Cc2cc(OC)ccc2OC)cc(N)c1C#N", "remaining activity": "104%"}
{"Compound": "N#C/C(=C\\c1ccc(O)c(O)c1)C(=O)NCc1ccccc1", "remaining activity": "90.7%"}
{"data": "Series 2", "target": "PABPC1L2, full length, GST fusion (mouse, UniProt A0ABA7IW68)", "technique": "RNAcompete", "molecule type": "RNA", "medium": "in vitro", "concentration": "20 nM", "setting": "7-mer, probes averaged, single round", "relative to": "mean of 7-mers", "reading": "higher = stronger binding", "Target sequence (chain)": "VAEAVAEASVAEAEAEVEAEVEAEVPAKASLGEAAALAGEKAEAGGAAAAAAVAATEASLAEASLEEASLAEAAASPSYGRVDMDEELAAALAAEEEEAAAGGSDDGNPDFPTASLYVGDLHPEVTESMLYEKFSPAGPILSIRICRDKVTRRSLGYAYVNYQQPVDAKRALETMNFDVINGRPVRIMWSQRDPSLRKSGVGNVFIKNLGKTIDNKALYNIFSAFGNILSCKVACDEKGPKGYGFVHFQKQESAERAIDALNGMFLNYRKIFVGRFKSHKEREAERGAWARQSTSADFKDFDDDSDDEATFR"}
{"Sequence": "GACUCAA", "7-mer Z-score": -0.0826}
{"Sequence": "AGAGUCU", "7-mer Z-score": -0.414}
{"Sequence": "AAACUGA", "7-mer Z-score": 1.02}
{"Sequence": "ACGUAGC", "7-mer Z-score": -0.204}
{"Sequence": "UCAAAAA", "7-mer Z-score": 16.4}
{"Sequence": "UGCAGCG", "7-mer Z-score": -0.211}
{"Sequence": "UGUCUAC", "7-mer Z-score": -0.371}
{"Sequence": "UAUAGAU", "7-mer Z-score": -0.22}
{"data": "Series 3", "target": "TATA-box-binding protein 1 (TBP1, Arabidopsis thaliana, UniProt P28147, residues 1-200, full length assumed)", "technique": "protein-binding microarray", "molecule type": "double-stranded DNA, one strand shown", "medium": "in vitro", "concentration": "not given", "setting": "k-mer, scored over probes, only values ≥0.25", "reading": "higher = stronger binding", "Construct (chain)": "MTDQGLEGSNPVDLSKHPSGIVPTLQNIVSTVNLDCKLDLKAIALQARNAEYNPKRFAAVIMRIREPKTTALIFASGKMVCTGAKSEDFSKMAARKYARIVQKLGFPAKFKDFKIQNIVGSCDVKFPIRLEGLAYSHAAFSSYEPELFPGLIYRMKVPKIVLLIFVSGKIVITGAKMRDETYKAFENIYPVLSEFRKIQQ"}
{"Sequence": "CTAAAAA", "E-score": 0.281}
{"Sequence": "ATAATTC", "E-score": 0.353}
{"Sequence": "GTACTTA", "E-score": 0.279}
{"Sequence": "CATAATA", "E-score": 0.335}
{"Sequence": "CGTTTAA", "E-score": 0.291}
{"Sequence": "TATACCA", "E-score": 0.344}
{"Sequence": "TCTTAAA", "E-score": 0.333}
{"Sequence": "CCTATAA", "E-score": 0.347}
{"data": "Single results of other studies"}
{"Compound": "C[C@@]1(Cc2ccc(C#N)cc2)C(=O)N(c2cc(Cl)cc(Cl)c2)c2ncc(C(=O)NC3(c4nc(C5CCC5)no4)CC3)n21", "target or system": "normal organoid sample H", "test": "CellTiter-Glo", "system": "human", "setting": "1 µM, 4 days", "scale": "relative to: DMSO", "endpoint": "viability", "value": "107% and 79.3%"}
{"Compound": "C[C@H](c1cccc(C#N)c1)n1cc(Cl)cc(C(N)=O)c1=N", "target or system": "HTR3A (Homo sapiens, UniProt P46098)", "test": "cell-free assay", "setting": "10 µM", "endpoint": "inhibition", "value": "9.56%"}
{"Compound": "CN(C)C(=O)Cn1cc(-c2nc(C3(c4ccc(-c5cnc(N)nc5)cc4)CC3)no2)cn1", "target or system": "normal organoid sample H", "test": "CellTiter-Glo", "system": "human", "setting": "1 µM, 4 days", "scale": "relative to: DMSO", "endpoint": "viability", "value": "88.3% and 91%"}
